Published values from different studies.
Compare with care: the assays were run in different laboratories. Numbers after ± are the reported error.
CYP2C19: Cytochrome P450 2C19 (CYP2C19, Homo sapiens, UniProt P33261)
Chain of UniProt P33261 (whole entry, looked up): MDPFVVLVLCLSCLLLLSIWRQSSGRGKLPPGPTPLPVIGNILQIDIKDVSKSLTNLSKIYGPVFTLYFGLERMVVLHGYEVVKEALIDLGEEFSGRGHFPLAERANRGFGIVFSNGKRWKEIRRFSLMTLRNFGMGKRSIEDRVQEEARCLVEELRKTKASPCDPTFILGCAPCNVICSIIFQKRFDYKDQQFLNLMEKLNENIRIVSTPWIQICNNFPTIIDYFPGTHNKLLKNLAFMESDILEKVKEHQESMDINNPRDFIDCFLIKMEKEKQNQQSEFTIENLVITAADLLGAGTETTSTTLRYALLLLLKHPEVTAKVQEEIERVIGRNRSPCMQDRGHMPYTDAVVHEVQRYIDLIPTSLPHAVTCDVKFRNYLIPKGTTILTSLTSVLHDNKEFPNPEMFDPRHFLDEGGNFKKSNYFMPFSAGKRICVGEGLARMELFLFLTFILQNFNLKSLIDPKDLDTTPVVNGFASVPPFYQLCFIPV

Compound | target or system | test | system | conditions | scale | endpoint | value
CN(C(=O)n1cnc(-c2ccc[n+]([O-])c2)c1)C1CCCCC1 | CYP2C19 | enzyme activity, inhibitor | – | 50 µM, together with: 3-cyano-7-ethoxycoumarin substrate | – | inhibition | -1%
COc1ccc2nc([S+]([O-])Cc3ncc(CO)c(OC)c3C)[nH]c2c1 (centres unmarked) | CYP2C19 | – | human healthy subjects, plasma | oral, 20 mg, alone, fed, geometric mean, together with: midazolam 2 mg | – | Cmax | 112 ng/mL
CC(C)CC(=O)OC[C@H]1O[C@@](C#N)(c2ccc3c(N)ncnn23)[C@H](O)[C@@H]1O | CYP2C19 | metabolic stability | recombinant enzyme | 1 µM, 30 min | – | remaining compound | 83.6 ± 2.58%
CS(=O)(=O)Nc1ncn(-c2cc(F)c(COc3ccc(OS(=O)(=O)F)cc3)c(F)c2)n1 | CYP2C19 | – | – | – | – | IC50 | > 50000 nM
Cc1cc(C)nc(Nc2ncc(C(=O)NCCc3c(C)[nH]c4ccccc34)cn2)c1 | CYP2C19 | recombinant enzyme phenotyping | – | 1 µM, 30 min | – | fraction metabolised | 0.3%
O=C(Nc1cnccc1Cl)N1CCN(Cc2ccc3c(c2)OC(F)(F)O3)CC1 | CYP2C19 | enzyme activity, inhibitor | – | 50 µM, together with: 3-cyano-7-ethoxycoumarin substrate | – | inhibition | 58%
N#Cc1ccc([C@H]2CCc3cncn32)c(F)c1 | CYP2C19 | inhibitor, item: S-mephenytoin 4'-hydroxylation | pooled human liver microsomes | pH 7.4, together with: S-mephenytoin 15 µM | – | Ki | 2000 nM
COP(=O)(CCC(N)C(=O)O)Oc1cccc(CC(=O)O)c1 (centres unmarked) | human coronavirus OC43 | virus-induced cell killing | MRC-5 | screen | – | maximum inhibition | 16.5%
COc1ccc2[nH]c([S+]([O-])Cc3ncc(C)c(OC)c3C)nc2c1 (centres unmarked) | CYP2C19 | item: 5-hydroxyomeprazole | human healthy subjects, plasma | oral, 20 mg, alone, fed, geometric mean, together with: midazolam 2 mg | – | Cmax | 142 ng/mL
CN(C)c1cccc(C(=O)NCC2CCN(c3cc(-c4ccc(Cl)cc4)n[nH]3)CC2)c1 | Vero-E6 | CellTiter-Glo ATP | – | concentration not given, 72 h, second round 5-point | reference: DMSO 0%, hyamine -100%, more negative, more toxic | cytotoxicity efficacy | -28%
CC[C@H](Nc1ncnc2[nH]cnc12)c1nc2cccc(F)c2c(=O)n1-c1ccccc1 | human coronavirus OC43 | virus-induced cell killing | MRC-5 | maximum over 10 doses | – | maximum inhibition | 0.397%

A few entries again:
Compound | target or system | test | system | conditions | scale | endpoint | value
CN(C)c1cccc(C(=O)NCC2CCN(c3cc(-c4ccc(Cl)cc4)n[nH]3)CC2)c1 | Vero-E6 | CellTiter-Glo ATP | – | concentration not given, 72 h, second round 5-point | reference: DMSO 0%, hyamine -100%, more negative, more toxic | cytotoxicity efficacy | -28%
